Published values collected from several papers.
Values joined by “and” are separate records of one study, mostly repeats; a detail may differ. ± marks the error that the study gave.
B1: E. coli DnaJ; chain MAKQDYYEILGVSKTAEEREIRKAYKRLAMKYHPDRNQGDKEAEAKFKEIKEAYEVLTDSQKRAAYDQYGHAAFEQGGMGGGGFGGGADFSDIFGDVFGDIFGGGRGRQRAARGADLRYNMELTLEEAVRGVTKEIRIPTLEECDVCHGSGAKPGTQPQTCPTCHGSGQVQMRQGFFAVQQTCPHCQGRGTLIKDPCNKCHGHGRVERSKTLSVKIPAGVDTGDRIRLAGEGEAGEHGAPAGDLYVQVQVKQHPIFEREGNNLYCEVPINFAMAALGGEIEVPTLDGRVKLKVPGETQTGKLFRMRGKGVKSVRGGAQGDLLCRVVVETPVGLNERQKQLLQELQESFGGPTGEHNSPRSKSFFDGVKKFFDDLTR
B2: human hnRNP F; sequence looked up; chain MMLGPEGGEGFVVKLRGLPWSCSVEDVQNFLSDCTIHDGAAGVHFIYTREGRQSGEAFVELGSEDDVKMALKKDRESMGHRYIEVFKSHRTEMDWVLKHSGPNSADSANDGFVRLRGLPFGCTKEEIVQFFSGLEIVPNGITLPVDPEGKITGEAFVQFASQELAEKALGKHKERIGHRYIEVFKSSQEEVRSYSDPPLKFMSVQRPGPYDRPGTARRYIGIVKQAGLERMRPGAYSTGYGGYEEYSGLSDGYGFTTDLFGRDLSYCLSGMYDHRYGDSEFTVQSTTGHCVHMRGLPYKATENDIYNFFSPLNPVRVHIEIGPDGRVTGEADVEFATHEEAVAAMSKDRANMQHRYIELFLNSTTGASNGAYSSQVMQGMGVSAAQATYSGLESQSVSGCYGAGYSGQNSMGGYD
B3: gamma-glutamyl hydrolase (human); sequence looked up; chain RPHGDTAKKPIIGILMQKCRNKVMKNYGRYYIAASYVKYLESAGARVVPVRLDLTEKDYEILFKSINGILFPGGSVDLRRSDYAKVAKIFYNLSIQSFDDGDYFPVWGTCLGFEELSLLISGECLLTATDTVDVAMPLNFTGGQLHSRMFQNFPTELLLSLAVEPLTANFHKWSLSVKNFTMNEKLKKFFNVLTTNTDGKIEFISTMEGYKYPVYGVQWHPEKAPYEWKNLDGISHAPNAVKTAFYLAEFFVNEARKNNHHFKSESEEEKALIYQFSPIYTGNISSFQQCYIFD
B4: human lamin B1; sequence looked up; chain ATATPVPPRMGSRAGGPTTPLSPTRLSRLQEKEELRELNDRLAVYIDKVRSLETENSALQLQVTEREEVRGRELTGLKALYETELADARRALDDTARERAKLQIELGKCKAEHDQLLLNYAKKESDLNGAQIKLREYEAALNSKDAALATALGDKKSLEGDLEDLKDQIAQLEASLAAAKKQLADETLLKVDLENRCQSLTEDLEFRKSMYEEEINETRRKHETRLVEVDSGRQIEYEYKLAQALHEMREQHDAQVRLYKEELEQTYHAKLENARLSSEMNTSTVNSAREELMESRMRIESLSSQLSNLQKESRACLERIQELEDLLAKEKDNSRRMLTDKEREMAEIRDQMQQQLNDYEQLLDVKLALDMEISAYRKLLEGEEERLKLSPSPSSRVTVSRASSSRSVRTTRGKRKRVDVEESEASSSVSISHSASATGNVCIEEIDVDGKFIRLKNTSEQDQPMGGWEMIRKIGDTSVSYKYTSRYVLKAGQTVTIWAANAGVTASPPTDLIWKNQNSWGTGEDVKVILKNSQGEEVAQRSTVFKTTIPEEEEEEEEAAGVVVEEELFHQQGTPRASNRSC
Sequence of UniProt Q64663 (whole entry, unmodified, looked up): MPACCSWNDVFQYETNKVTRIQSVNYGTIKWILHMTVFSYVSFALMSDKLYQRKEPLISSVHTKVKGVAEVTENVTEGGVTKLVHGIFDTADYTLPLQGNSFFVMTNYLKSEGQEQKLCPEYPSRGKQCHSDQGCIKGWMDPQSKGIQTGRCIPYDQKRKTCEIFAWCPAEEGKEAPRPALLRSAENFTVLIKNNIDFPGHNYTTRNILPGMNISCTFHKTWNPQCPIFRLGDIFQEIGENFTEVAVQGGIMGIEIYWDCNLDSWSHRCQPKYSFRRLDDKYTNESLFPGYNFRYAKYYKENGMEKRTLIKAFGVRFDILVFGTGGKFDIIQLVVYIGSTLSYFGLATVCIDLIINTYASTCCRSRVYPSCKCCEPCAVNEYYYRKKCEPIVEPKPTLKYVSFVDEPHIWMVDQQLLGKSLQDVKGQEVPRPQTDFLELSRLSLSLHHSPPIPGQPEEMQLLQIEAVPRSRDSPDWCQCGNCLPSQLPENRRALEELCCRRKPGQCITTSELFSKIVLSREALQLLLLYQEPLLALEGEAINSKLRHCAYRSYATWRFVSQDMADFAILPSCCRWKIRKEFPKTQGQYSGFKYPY
Sequence of UniProt P84090 (whole entry, unmodified, looked up): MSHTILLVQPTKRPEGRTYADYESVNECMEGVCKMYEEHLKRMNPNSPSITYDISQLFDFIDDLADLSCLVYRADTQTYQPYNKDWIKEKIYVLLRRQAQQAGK

Molecule	tested on	test	test system	setting	scale	endpoint	value
NRVDSKETEC	construct, MBP fusion, human SCRIB, PDZ 3-4	surface plasmon resonance	peptide	concentration not given	higher = stronger binding	normalised SPR binding response	22.1 normalised RU
PRTARHAPAVRKFSPDLKLLKDVKISVSFTE (DGCR8(96-126), SUMO-tagged)	Enhancer of rudimentary homolog (Homo sapiens, UniProt P84090, T18A)	DGCR8 peptide binding, ITC	peptide	293 K	–	ΔH	-2.39 ± 0.502 kcal/mol
I-BET151	BRD4 bromodomains BRD4 D1 and D2	SDS-PAGE	–	–	–	photocrosslinking	no effect
B1 (E. coli DnaJ)	DnaK (Escherichia coli) ATP-bound	binding, fluorescence polarization	–	10 µM, 30 °C, added: ATP	–	fraction bound	40.3%
GGWVEKETYY	construct, MBP fusion, human SCRIB, PDZ 3-4	surface plasmon resonance	peptide	concentration not given	higher = stronger binding	normalised SPR binding response	3.5 normalised RU
caspofungin	–	–	adult ICU patients, mITT, serum	dose not given, day 4	–	bilirubin	17.6 µmol/L
Teicoplanin	–	ultrafiltration	–	high QC, weight corrected	–	ultrafiltrate solubility loss	0.36%
GSGAGQITKV	construct, MBP fusion, human SCRIB, PDZ 3-4	automated holdup	peptide, purified PDZ protein	concentration not given, unit not given	reference: biotin control resin, higher = stronger binding	binding intensity	-0.142
FNA / CGLSGLGVA-NH2 ([18F]FNA-labelled, C-amide)	–	ex vivo gamma counting	peptide, glioblastoma mouse model, liver	60 min post injection, added: 500-fold excess CooP blocking	–	tissue uptake	0.6 %ID/g
human epiplakin	PP6C (human)	co-immunoprecipitation, IP-MS	CYB5R4 knockout cells	concentration not given	reference: CYB5R4 knockout over parental	log2 fold change	0.45
phosphatidylinositol 4,5-bisphosphate	adenosine A2A receptor thermostabilised	equilibrium dialysis LC-MS	–	concentration not given	reference: no protein	log2 fold change	0.118
B2 (human hnRNP F)	PP6C (human)	co-immunoprecipitation, IP-MS	CYB5R4 knockout cells	concentration not given	reference: CYB5R4 knockout over parental	log2 fold change	-0.6
(-)-epigallocatechin	Nrf2	Nrf2 induction, inducer	–	–	reference: control	fold induction	1 fold
VVVGAVGVGK	HLA-A*11:01 peptide-β2M single-chain trimer	western blot, item: pMHC-I	peptide, 293T cells	60 h, unit not given, added: 100 µg/mL cycloheximide	reference: time zero	remaining protein	0.781 and 0.813 and 0.804
11-deoxycorticosterone	CYP11B2 (human)	substrate binding, stopped-flow kinetic modelling	–	4-state branched induced-fit model, added: equimolar adrenodoxin	–	rate constant k-3	0.569 min⁻¹
colistin	Salmonella enterica München	broth microdilution	clinical isolate RKI 419/14	–	–	MIC	≤ 0.5 µg/mL
VVVGASGVGK	HLA-A*11:01 peptide-β2M single-chain trimer	western blot, item: pMHC-I	peptide, 293T cells	6 h, unit not given, added: 100 µg/mL cycloheximide	reference: time zero	remaining protein	0.831 and 0.838 and 0.898
KPGKGSETVV	construct, MBP fusion, human SCRIB, PDZ 3-4	automated holdup	peptide, crude extract	concentration not given, uncorrected, unit not given	reference: biotin control resin, higher = stronger binding	binding intensity	0.0895
DNA topoisomerase 2-beta (human)	PP6C (human)	co-immunoprecipitation, IP-MS	CYB5R4 knockout cells	concentration not given	reference: CYB5R4 knockout over parental	log2 fold change	0.43
FGA (Homo sapiens, UniProt P02671)	SPTBN5 (Homo sapiens, UniProt Q9NRC6)	cross-linking MS	–	added: DSSO	–	cross-linked residues	K243 to K2277
B3 (gamma-glutamyl hydrolase)	PP6C (human)	co-immunoprecipitation, IP-MS	CYB5R4 knockout cells	concentration not given	reference: CYB5R4 knockout over parental	log2 fold change	0.0044
SEKHFRETEV	construct, MBP fusion, human SCRIB, PDZ 3-4	surface plasmon resonance	peptide	concentration not given	higher = stronger binding	normalised SPR binding response	102 normalised RU
B4 (human lamin B1)	PP6C (human)	co-immunoprecipitation, IP-MS	CYB5R4 knockout cells	concentration not given	reference: CYB5R4 knockout over parental	log2 fold change	-0.49
BzATP	P2X purinoceptor 7 (P2rx7, Rattus norvegicus, UniProt Q64663, Q143A/R125A)	ion current, agonist, two-electrode voltage clamp	Xenopus laevis oocytes	0.14 µM	reference: highest concentration response	normalized current	0
human Hsp90-beta	PP6C (human)	co-immunoprecipitation, IP-MS	CYB5R4 knockout cells	concentration not given	reference: CYB5R4 knockout over parental	log2 fold change	0.0012
EKPIDSETKM	construct, MBP fusion, human SCRIB, PDZ 3-4	automated holdup	peptide, crude extract	concentration not given, corrected by standard peak, unit not given	reference: biotin control resin, higher = stronger binding	binding intensity	0.165
Peginesatide	UT7/EPO	tyrosine phosphorylation, LC-MS/MS phosphoproteomics, trypsin, item: JAK2 tyrosine 570	–	10 nM, 15 min, added: 10 U/mL EPO	reference: vehicle	phosphorylation level	6 fold
